# Assay results of several laboratories.
# A part holds a random share of what one study measured.
# UniProt Q9C0B0, sequence (30-357, looked up): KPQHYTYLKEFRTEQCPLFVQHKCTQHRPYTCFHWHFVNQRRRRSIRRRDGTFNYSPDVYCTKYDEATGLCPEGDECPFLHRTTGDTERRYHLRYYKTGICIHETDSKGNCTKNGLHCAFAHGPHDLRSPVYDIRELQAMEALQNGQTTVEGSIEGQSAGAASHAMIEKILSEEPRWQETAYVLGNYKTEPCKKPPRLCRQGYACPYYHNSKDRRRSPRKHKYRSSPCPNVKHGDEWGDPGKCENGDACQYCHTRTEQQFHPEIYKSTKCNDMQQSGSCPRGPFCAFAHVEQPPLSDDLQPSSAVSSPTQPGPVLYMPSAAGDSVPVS

# Study 1
# Target: Interferon regulatory factor 7, full length, phosphomimetic (IRF7, Homo sapiens, UniProt Q92985, residues 1-503, S471D/S472D/S475D/S476D/S477D/S483D/S484D/S487D)
# UniProt Q92985, sequence (whole entry, unmodified, looked up): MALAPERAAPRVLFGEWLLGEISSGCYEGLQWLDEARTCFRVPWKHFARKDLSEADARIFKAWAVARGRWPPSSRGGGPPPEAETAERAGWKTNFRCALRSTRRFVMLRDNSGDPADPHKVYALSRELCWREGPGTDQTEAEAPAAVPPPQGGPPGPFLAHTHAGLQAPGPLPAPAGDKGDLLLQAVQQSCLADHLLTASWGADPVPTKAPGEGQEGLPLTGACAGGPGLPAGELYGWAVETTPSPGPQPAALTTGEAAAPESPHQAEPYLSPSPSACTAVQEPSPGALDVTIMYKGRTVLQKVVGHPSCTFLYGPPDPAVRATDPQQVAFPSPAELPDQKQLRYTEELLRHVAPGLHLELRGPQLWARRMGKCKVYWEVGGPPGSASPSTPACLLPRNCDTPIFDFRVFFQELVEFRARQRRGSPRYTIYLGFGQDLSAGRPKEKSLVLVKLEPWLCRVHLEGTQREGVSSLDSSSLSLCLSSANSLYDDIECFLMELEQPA
# Technique: protein-binding microarray
# Form: double-stranded DNA, one strand shown
# Sample: in vitro
# Concentration: 2200 nM top
# Setting: 60-bp whole probe
# With: salmon DNA 0.4 mg/ml
# Baseline: random background probes
# Direction: higher = stronger binding
# Shared flanks, not repeated: GCCTAGCAC … GTCTTGATTCGCTTGACGCTGCTG
Oligonucleotide,fitted relative affinity [z-score]
TTAGGACTGGTACTGCTTTAGTGCTAG,-0.245
TTATGACTGGGGACTGGGTTAGTGCTA,-0.364
TCATTTTTCTTTTATTAACTGTGCTAG,4.33
TTAGGTTTCTGGTTTCGGTTAGTGCTA,7.9
TTAGTTTTCGGTATCGGTTAGTGCTAG,8.04
GACGATCTGGGGTATCGAGACGTGCTA,0.0749
GACGGTCTCCTTTTCCTTACGTGCTAG,1.83
GACGGACTGCTTTTTCTGACGTGCTAG,0.581
TTAGGTCTCGGCATCGGTTAGTGCTAG,0.00162
AGTATTACCTCATCTTTCCCTGTGCTA,2.04
TCACATATTCTCTTCTTACTGTGCTAG,1.95
GACCATTTCGGGTATCGAGACGTGCTA,2.13
ATGAGTCTCAATATTAGAGTGTGCTAG,-0.0428
TTAGATCTCAGTTTCGATCAGTGCTAG,3.41
GACGGTCTCCTTTACCTGACGTGCTAG,1.05
TTAGGTTTCCTTACCCTTTAGTGCTAG,1.38
TTAGGTATCCTTTTCCTTTAGTGCTAG,1.7
GGCGGACTGCTTCTCCTGACGTGCTAG,-0.204
TTAGATTTCGGGACTGGACTAGTGCTA,0.671

# Study 2
# Target: Fragile X messenger ribonucleoprotein 1, C-terminal low-complexity region (Fmr1, Mus musculus, UniProt P35922)
# Technique: RNA Bind-n-Seq
# Form: RNA
# Sample: in vitro
# Concentration: 200 nM
# Setting: whole 134-nt RNA, ends assumed
# With: 150 mM LiCl
# Baseline: input library
# Direction: higher = stronger binding
# Library: 7-deaza-guanosine replaces G
# Shared flanks, not repeated: GGGAGUUCUACAGUCCGACGAUC … UGGAAUUCUCGGGUGUCAAGG
Oligonucleotide,log2 enrichment
UAACUUUAGAGGAGGAUCUGAUGGAUAUGGCAGUGGACGUGGAUUUGGGGAUGGCUAUAAUGGGUAUGGAGGAGCACCUGGAGGUGGCAA,0.965
GCAGGAAGUAAAAACAAAUGGAAAUGCUUCGGAUUGUGGCAGGGGUGGGGGUUGCUAAGGAAAGGGUGGGAUGGGAGUGGGUAAAGAGUU,1.55
CAAGUCCUGUGCUACACAUCGUAUGUACCGAAUCGGGAAAAGGGAAAAGGAAAAGGAAAGUAUUAUGUUACGCCGUUCGGAUCUGCACUU,-1.43
UCCUGUGCUACACAUCGUAUGUACCGAAUCGGGGUUUUUUGGGUUUUUUGGUUUUUUGGGAAAGUAUUAUGUUACGCCGUUCGGAUCUGC,-0.401
UUCAUUCUUACUUUGAAUCUAGGAUUUUAUGGAAGACCUUGGGUUAUGGAACAGAGAAAAGAACUCUUUAGAAGGUAAAUCUUCAUUAUA,-2.31
ACCAUGCAGGUGGGCAUCUUUGGGAAGUGGGGCAAGGGGGGGAUAGGGAGGGGGGUAACACUUUGGGAACAGGAGGUCCCAGGUCGUUUC,1.32
CCUCAAGUCCUGUGCUACACAUCGUAUGUACCGAAUCGGCCGGCCGGGGCCGGAAAGUAUUAUGUUACGCCGUUCGGAUCUGCACUUCCA,1.42
UGGCCCUGGUGGCAUGCGGGGAGGAAGAGGUGGCCUCAUGGAUCGUGGUGGUCCCGGCGGAAUGUUCAGAGGUGGCCGUGGUGGAGACAG,-0.252

# Study 3
# Target: Histone acetyltransferase KAT6A, winged helix 2, GST fusion (KAT6A, Homo sapiens, UniProt Q92794, residues 85-181)
# Technique: protein binding microarray
# Form: double-stranded DNA, one strand shown
# Sample: in vitro
# Concentration: not given
# Setting: 8-mer, flanks averaged, mean of 2 arrays, mostly near background
# Baseline: not given
# Direction: higher = stronger binding
# Residues (chain): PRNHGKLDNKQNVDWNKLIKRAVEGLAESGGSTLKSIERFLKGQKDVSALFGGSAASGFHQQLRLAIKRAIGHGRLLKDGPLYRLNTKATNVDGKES
Oligonucleotide,E-score
ACTCGACA,0.0037
CCAACCGG,0.0935
AGCATAGA,0.131
AAGTCGGT,-0.0571
TGACCGCA,0.113
GATTGCCC,0.0831
ACAAGAAG,-0.0655
ATGTCACC,-0.0617
CCAAGATC,0.0423
AGGCATCC,-0.178
CCCTCCAC,0.137
GCACGGTA,-0.0719
AGCTCAAA,0.0988
GCCAAACC,-0.013
AAGTCATG,-0.179
CGTCAAGA,-0.0232
CTGCACGA,0.0299
GTAAGTAA,-0.394
GCCGGCGA,0.133
AGGGCAAT,0.0153
GAGGGGTA,-0.00183
AGAGGTAT,-0.0358
AGCAAGCG,0.0716
GCCCTCTA,-0.0382
CACAGCAG,0.167

# Study 4
# Target: Prothrombin, mature alpha-thrombin (F2, Homo sapiens, UniProt P00734)
# Technique: aptamer microarray, sandwich
# Form: DNA with 2'F-ANA
# Sample: in vitro
# Concentration: 200 nM
# Setting: whole 15-mer aptamer, many near background
# With: Cy3 exosite-II aptamer, 400 nM
# Direction: higher = stronger binding
# Oligonucleotide: GGTTGGTGTGGTTGG
Modification,mean fluorescence intensity [a.u.]
2'F-ANA at 1 2 3 8 9 10 12 15,97.1
2'F-ANA at 1 3 4 5 7 8 9 11 15,60.2
2'F-ANA at 1 3 4 5 9 12 14,48.5
2'F-ANA at 2 3 5 6 8 11 14,50.2
2'F-ANA at 1 3 4 6 9 11 15,138
2'F-ANA at 1 2 5 9 11 12 13,67.8
2'F-ANA at 1 3 6 13 14,113
2'F-ANA at 5 7 8 10 13,43.8
2'F-ANA at 1 2 4 9 11 12 14,52.9
2'F-ANA at 1 2 4 6 7 11 12 13 14 15,67.4
2'F-ANA at 2 3 4 10 11 13 15,215
2'F-ANA at 3 4 5 6 8 10 12 13 15,61.9
2'F-ANA at 2 7 8 11,445
2'F-ANA at 2 4 7 10 15,98.1
2'F-ANA at 2 3 4 5 6 8 9 14,48.1
2'F-ANA at 1 5 6 7 8 11,54.5
2'F-ANA at 1 2 8 9 12 15,459
2'F-ANA at 2 3 5 12 14,58.8
2'F-ANA at 1 2 5 8 10 13 14,46.7
2'F-ANA at 3 4 5 8 10 11 14 15,53.4
2'F-ANA at 1 2 5 6 7 9 10 12 13 15,48.5
2'F-ANA at 1 2 3 4 8 9 11 12 14 15,75
2'F-ANA at 1 5 6 11 12,112
2'F-ANA at 2 3 4 8 10 11,234

# Other studies, line by line
Oligonucleotide,target,test,test system,setting,how to read,measurement,value
GGGAGUUCUACAGUCCGACGAUCCCGAAAGGCCAAAUUCCCUCCUCCCUUCUACUGCUUCUACCAACUGGAAGCACAGAAAACCCGAAUUUCAUUUAUUUUGUUUUUAAAAUAUAUAUGUUGAUUUCUUGUAACAUCCAACCGCAACAGAGGAUUGAGCAUCA,"RING finger protein unkempt homolog, zinc fingers 1-6, SBP tag (UNK, Homo sapiens, UniProt Q9C0B0, residues 30-357)",RNA Bind-n-Seq,"RNA, in vitro","100 nM, RNA with constant flanks, ends assumed","baseline: input RNA pool, higher = stronger binding",bound/input enrichment,0.381 ratio
